Measured values collected from several papers.
Numbered parts are unrelated; each lists some results of a single study. Substitutions count along the parent as printed.

Series 1
Target: Histone acetyltransferase KAT6A, winged helix 1, GST fusion (KAT6A, Homo sapiens, UniProt Q92794, residues 1-85)
Method: protein binding microarray
Molecule type: double-stranded DNA, one strand shown
Sample: in vitro
Concentration: not given
Setting: 8-mer, flanks averaged, mean of 2 arrays, mostly near background
Relative to: not given
Direction: higher = stronger binding
Target sequence (chain): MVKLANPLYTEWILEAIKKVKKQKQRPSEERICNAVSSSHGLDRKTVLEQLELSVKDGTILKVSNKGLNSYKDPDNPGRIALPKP
Sequence	E-score
AACTATAT	-0.0644
GCGGACCA	0.236
CAAGTAGC	-0.274
CGATAACG	0.0157
CTTTCTCC	-0.0824
CGCGTTGC	0.269
CGTGTAAG	0.0356
ATCCGGAA	-0.0289
ACGGTCGG	0.253
CTGGCTAA	-0.105
TCCTCAAA	-0.202
CTGACGCA	0.174
CCACAGCA	-0.198
CTCGGACC	0.11
CGTAGGGC	0.213
ATAGAATC	-0.131
AGCGGCGA	0.34
AGTCGGGC	0.133
AAATAATA	-0.142

Series 2
Target: FOSB, bZIP domain (human)
Method: DHFR protein complementation
Sample: yeast
Setting: single substitutions, most at no-binding floor
Relative to: wild-type JUN-FOS pair
Direction: higher = stronger binding
Parent: JUN, bZIP domain (human); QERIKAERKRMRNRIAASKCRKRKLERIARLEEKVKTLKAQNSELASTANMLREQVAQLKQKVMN; partner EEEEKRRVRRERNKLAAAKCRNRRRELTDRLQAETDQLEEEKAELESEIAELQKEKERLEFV
Variant	binding fitness [natural log]
R53I	-1
I28D	-0.346
E54P	-1.16
N42C	0.0709
M51T	0.00766
A40V	-0.121
T48H	-0.0702
A40T	-0.00947
A49M	-0.397
E44G	-0.237
R30L	0.0184
R30I	-0.011
K39A	-0.571
E32R	0.00466
K39Q	-0.394
L38F	-0.856
Q55I	-0.0564
T48E	-0.225
K39E	-0.578
M51W	-0.132
A40N	-0.136
N42H	-0.5

Series 3
Target: RING finger protein unkempt homolog, zinc fingers 1-6, GST-SBP tag (UNK, Homo sapiens, UniProt Q9C0B0, residues 30-357)
UniProt Q9C0B0, sequence (30-357, looked up): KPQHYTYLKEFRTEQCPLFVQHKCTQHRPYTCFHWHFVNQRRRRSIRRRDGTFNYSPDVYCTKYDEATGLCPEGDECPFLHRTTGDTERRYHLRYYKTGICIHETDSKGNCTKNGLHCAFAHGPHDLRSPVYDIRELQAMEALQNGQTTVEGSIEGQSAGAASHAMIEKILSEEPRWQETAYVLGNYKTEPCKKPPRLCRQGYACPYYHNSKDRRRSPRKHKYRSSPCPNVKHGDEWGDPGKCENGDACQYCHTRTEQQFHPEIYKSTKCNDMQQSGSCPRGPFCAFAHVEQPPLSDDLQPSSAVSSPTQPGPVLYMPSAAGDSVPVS
Method: RNA Bind-n-Seq
Molecule type: RNA
Sample: in vitro
Concentration: not given
Setting: RNA with constant flanks, human and mouse sites, ends assumed
Relative to: input RNA pool
Direction: higher = stronger binding
Shared flanks, not repeated: GGGAGUUCUACAGUCCGACGAUC … CAACAGAGGAUUGAGCAUCA
Sequence	bound/input enrichment [ratio]
CCAGCAUAACUAUUGAGAAUAUUAGCACCAGGAACAUGUUCCACAGUAACAGCAGGAAAUAUAGCCGGAUCGCCAAGCUUUGUUGGAAGUACUUUAAAUGUACUCUGUUCUGGUAUUAUA	1.42
GACCAGAGGAAGGGAGAGGGUCUUGUCUCCUGUGUCAUAUUGGUCCUUUGAUACUGUGUUGGUUUGGUGUGUGUGUGUGGGUAUGUACUUCCUGUCUGGAUUGCAGAUCUUCAUCUCCCU	0.33
AAUCUUCGCCGAUGUACUUACCUUGUAUUGGACGAAGCUGACAGAAUGCUUGAUAUGGGGUUUGAACCCCAGAUCCGUAAAAUUGUUGACCAAAUCAGGCCUGAUAGGCAGACACUGAUG	0.128
CUGGGGGCCGGGGCGGUGGCCUACGGCGUCCGCGAAUCCGUGUUCACCGUGGAAGGCGGUCAUAGAGCCAUCUUUUUUAAUCGUAUUGGUGGCGUGCAGCAGGACACGAUCCUGGCCGAA	0.138
CCCACUAAACCAUCUCUCAGGCUCCUGAGAGGUUUUUUGUUUGUUUGUUUUUGUUUUUUAAAUAGGUCUCAGCUGGCCUGGAGCUUGCAGUGUAGAUCAGGCUGGCCUAGAGCUUACUGA	0.274
AUUUUUUUUUUUUUUUUUUUAAGAAUAUCUGUAAUGGUACUGACUUUGCUUGCUUUGAAGUAGCUCUUUUUUUUUUUUUUUUUUUUUUUUUGCAGUAACUGUUUUUUAAGUCUCUCGUAG	8.27
UACUGGAGUGGAUAUAUGUGUGUACCUGUGUGUGUUUGUAUAAAUAUAUGUGUAAUCCAAAAGUCAGUAAUGGUAAUUUAUUAAUGGUUAAACUAUAUAUGUUGUCUCAAUUUUACAGCC	1.4
AAUGACUAUGAGAAUGGUUUAGACCUUCUGUUUCACCCAGUUACUGCAAAGCCUGCAUCGUGGCAACAUUCAAAGAUAAUUGAAGCUUUUAUGAGUCAGGGAGAGCACAAACAGGCUCUC	0.209

Series 4
Target: Prothrombin, mature alpha-thrombin (F2, Homo sapiens, UniProt P00734)
Method: aptamer microarray, sandwich
Molecule type: DNA with 2'F-ANA
Sample: in vitro
Concentration: 200 nM
Setting: whole 15-mer aptamer, many near background
Together with: Cy3 exosite-II aptamer, 400 nM
Direction: higher = stronger binding
Sequence: GGTTGGTGTGGTTGG
Modification	mean fluorescence intensity [a.u.]
2'F-ANA at 1 2 4 5 12 13	83.9
2'F-ANA at 2 3 4 5 8 9 10 12 13 14 15	47
2'F-ANA at 3 4 7 8 10 13 15	295
2'F-ANA at 4 7 8 9 11	298
2'F-ANA at 1 3 5 6 10 11 14	45.4
2'F-ANA at 4 6 7 10 11 13 14 15	59.2
2'F-ANA at 1 2 3 6 9 14 15	67.1
2'F-ANA at 1 2 5 6 7 10 13 15	79.5
2'F-ANA at 4 6 8 10 11 13 15	64.5
2'F-ANA at 1 2 3 4 5 7 8 10 11 13 14	47.2
2'F-ANA at 3 4 5 6 7 8 12 13 14	77.8
2'F-ANA at 1 2 3 4 5 9 10 11 12	50.2
2'F-ANA at 6 7 8 9 11 12 14	194
2'F-ANA at 1 2 7 8 11 12	398
2'F-ANA at 2 3 4 6	638
2'F-ANA at 1 3 5 6 7 9 10 13	45
2'F-ANA at 1 3 5 6 8 12 13	98.4
2'F-ANA at 1 2 5 8 10	72.1
2'F-ANA at 2 4 5 10 15	66.6
2'F-ANA at 1 2 7 8 10 11 12 13 14 15	58.5
2'F-ANA at 1 2 3 5 9 10 11 14 15	52
2'F-ANA at 5 6 8 9	86.8
2'F-ANA at 1 2 3 4 7 8 9 14	63.4
2'F-ANA at 3 4 5 8 9 10 12 15	61.7
2'F-ANA at 5 6 7 14	46

Repeated from above (series 2):
Variant	binding fitness [natural log]
A49M	-0.397
M51W	-0.132
N42C	0.0709
R30L	0.0184
A40T	-0.00947
R53I	-1
R30I	-0.011
T48H	-0.0702
A40N	-0.136
